Experimental data of several laboratories.
Several values in a cell are separate wells, animals, samples, runs or records. ± marks the error that the study gave.
E3 ubiquitin-protein ligase NEDD4: E3 ubiquitin-protein ligase NEDD4 (Homo sapiens, UniProt P46934)
RPA1 N-terminal domain: Replication protein A 70 kDa DNA-binding subunit, N-terminal domain (RPA1, Homo sapiens, UniProt P27694)
MAPK8: Mitogen-activated protein kinase 8 (MAPK8, Homo sapiens, UniProt P45983)
GRM4: Metabotropic glutamate receptor 4 (GRM4, Homo sapiens, UniProt Q14833)
Lysophospholipase-like protein 1: Lysophospholipase-like protein 1 (Mus musculus, UniProt Q3UFF7)

By UniProt entry, the sequences of proteins in these tests, tags left out. Where a name states a change or a piece, a line headed by the entry shows the natural chain unless it says otherwise. Residues count along the entry.
UniProt P46934, whole entry, looked up: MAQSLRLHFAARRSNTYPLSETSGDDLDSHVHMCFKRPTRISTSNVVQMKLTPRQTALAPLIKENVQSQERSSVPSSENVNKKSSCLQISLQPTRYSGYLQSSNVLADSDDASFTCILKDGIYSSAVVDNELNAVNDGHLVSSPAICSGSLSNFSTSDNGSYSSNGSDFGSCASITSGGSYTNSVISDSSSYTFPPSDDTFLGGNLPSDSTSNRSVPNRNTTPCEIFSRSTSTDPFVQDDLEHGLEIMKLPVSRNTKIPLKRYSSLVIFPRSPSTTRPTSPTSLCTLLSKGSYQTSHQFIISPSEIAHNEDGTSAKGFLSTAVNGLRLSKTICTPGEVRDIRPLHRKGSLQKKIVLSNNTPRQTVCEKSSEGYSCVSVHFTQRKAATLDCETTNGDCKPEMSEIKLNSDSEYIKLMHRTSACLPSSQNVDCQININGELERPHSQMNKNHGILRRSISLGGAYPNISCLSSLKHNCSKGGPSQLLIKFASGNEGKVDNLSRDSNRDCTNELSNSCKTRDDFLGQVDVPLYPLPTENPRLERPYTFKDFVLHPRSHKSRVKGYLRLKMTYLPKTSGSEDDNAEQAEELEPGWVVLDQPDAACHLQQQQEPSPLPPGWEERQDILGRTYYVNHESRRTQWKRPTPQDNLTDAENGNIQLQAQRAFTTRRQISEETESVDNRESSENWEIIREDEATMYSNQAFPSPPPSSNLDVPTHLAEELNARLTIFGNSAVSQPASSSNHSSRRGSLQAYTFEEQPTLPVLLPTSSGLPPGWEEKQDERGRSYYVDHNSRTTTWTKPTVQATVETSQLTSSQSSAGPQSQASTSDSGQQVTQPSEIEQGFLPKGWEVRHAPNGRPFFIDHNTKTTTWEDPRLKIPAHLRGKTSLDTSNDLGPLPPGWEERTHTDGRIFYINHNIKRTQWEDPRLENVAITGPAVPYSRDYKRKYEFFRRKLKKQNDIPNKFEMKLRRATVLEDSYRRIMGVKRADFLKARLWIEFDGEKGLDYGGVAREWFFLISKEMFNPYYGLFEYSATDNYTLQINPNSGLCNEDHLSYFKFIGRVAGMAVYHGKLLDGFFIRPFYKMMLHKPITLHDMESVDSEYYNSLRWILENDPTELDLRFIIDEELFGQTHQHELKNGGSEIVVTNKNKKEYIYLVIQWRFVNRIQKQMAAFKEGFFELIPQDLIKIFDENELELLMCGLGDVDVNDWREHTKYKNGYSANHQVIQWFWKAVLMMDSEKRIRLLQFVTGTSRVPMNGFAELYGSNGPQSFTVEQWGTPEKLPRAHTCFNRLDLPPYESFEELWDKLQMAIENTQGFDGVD
UniProt Q14833, 33-912 limits assumed: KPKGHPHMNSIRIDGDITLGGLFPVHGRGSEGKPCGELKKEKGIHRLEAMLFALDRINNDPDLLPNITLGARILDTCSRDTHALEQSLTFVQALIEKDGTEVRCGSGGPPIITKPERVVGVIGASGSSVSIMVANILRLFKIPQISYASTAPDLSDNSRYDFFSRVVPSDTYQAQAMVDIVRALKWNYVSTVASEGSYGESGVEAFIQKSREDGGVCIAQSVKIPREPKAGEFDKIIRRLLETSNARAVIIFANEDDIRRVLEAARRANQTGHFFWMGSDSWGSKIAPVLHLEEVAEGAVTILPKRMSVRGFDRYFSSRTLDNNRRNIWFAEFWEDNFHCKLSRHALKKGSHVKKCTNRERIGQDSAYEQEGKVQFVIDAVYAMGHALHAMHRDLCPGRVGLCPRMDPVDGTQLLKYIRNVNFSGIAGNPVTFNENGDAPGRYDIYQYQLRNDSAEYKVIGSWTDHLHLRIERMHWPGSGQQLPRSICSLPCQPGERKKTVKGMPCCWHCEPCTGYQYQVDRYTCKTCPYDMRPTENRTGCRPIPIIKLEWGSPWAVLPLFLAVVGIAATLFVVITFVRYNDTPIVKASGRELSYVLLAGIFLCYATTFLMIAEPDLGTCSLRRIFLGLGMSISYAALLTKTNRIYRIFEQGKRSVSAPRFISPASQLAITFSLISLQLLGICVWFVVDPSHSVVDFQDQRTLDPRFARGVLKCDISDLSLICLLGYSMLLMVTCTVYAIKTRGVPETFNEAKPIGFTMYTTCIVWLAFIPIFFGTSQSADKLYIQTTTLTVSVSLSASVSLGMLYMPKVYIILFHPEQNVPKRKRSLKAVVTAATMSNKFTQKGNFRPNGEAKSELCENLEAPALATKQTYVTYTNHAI
UniProt P05067, 672-713 limits assumed: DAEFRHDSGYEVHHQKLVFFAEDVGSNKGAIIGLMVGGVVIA
UniProt Q16281, whole entry: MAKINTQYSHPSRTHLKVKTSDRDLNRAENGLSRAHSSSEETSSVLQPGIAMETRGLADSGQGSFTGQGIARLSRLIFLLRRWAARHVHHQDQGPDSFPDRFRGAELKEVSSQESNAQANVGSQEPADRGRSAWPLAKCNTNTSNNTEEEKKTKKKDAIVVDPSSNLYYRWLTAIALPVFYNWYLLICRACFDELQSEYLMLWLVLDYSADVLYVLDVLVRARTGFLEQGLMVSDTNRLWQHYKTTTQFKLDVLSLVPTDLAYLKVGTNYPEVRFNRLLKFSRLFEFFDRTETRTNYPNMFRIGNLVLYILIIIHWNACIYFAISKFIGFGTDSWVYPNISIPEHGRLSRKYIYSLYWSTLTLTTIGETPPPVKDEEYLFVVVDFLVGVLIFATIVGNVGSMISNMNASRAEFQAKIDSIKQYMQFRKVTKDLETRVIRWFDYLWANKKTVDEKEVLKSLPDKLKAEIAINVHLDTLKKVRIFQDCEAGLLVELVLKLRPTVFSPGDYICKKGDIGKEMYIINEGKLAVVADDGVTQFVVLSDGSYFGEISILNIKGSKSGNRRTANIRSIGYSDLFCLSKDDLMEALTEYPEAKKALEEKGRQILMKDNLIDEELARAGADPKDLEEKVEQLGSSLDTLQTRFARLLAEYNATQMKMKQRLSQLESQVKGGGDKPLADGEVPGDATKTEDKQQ
UniProt P21462, whole entry: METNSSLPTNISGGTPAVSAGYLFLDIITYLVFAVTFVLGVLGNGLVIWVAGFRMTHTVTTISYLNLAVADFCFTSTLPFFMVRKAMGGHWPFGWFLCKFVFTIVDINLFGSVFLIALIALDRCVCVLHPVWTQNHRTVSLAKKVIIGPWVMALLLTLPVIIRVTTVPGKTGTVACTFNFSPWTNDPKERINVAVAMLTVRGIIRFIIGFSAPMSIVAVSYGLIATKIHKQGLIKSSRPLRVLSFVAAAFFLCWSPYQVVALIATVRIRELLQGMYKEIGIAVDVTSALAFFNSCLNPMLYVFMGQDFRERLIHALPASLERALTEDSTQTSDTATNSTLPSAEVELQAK
UniProt Q06187, whole entry: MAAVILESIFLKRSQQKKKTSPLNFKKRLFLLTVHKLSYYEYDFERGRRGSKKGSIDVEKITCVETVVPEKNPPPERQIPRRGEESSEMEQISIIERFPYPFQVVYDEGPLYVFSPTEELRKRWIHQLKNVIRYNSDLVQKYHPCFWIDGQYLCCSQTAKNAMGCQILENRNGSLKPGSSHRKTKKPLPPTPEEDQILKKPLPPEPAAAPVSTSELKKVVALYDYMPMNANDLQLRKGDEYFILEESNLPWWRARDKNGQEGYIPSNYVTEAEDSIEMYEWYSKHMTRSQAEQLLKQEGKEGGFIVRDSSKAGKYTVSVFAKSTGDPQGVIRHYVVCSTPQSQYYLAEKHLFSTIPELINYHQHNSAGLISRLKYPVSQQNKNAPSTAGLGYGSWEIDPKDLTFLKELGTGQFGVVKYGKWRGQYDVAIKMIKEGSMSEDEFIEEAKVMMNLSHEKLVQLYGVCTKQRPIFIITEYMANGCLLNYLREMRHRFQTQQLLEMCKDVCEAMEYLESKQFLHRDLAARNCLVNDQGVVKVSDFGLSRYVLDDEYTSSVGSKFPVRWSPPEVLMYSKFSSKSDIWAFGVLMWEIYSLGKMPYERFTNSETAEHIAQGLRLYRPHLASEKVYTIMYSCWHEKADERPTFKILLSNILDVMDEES
UniProt P31421, 19-872 limits assumed: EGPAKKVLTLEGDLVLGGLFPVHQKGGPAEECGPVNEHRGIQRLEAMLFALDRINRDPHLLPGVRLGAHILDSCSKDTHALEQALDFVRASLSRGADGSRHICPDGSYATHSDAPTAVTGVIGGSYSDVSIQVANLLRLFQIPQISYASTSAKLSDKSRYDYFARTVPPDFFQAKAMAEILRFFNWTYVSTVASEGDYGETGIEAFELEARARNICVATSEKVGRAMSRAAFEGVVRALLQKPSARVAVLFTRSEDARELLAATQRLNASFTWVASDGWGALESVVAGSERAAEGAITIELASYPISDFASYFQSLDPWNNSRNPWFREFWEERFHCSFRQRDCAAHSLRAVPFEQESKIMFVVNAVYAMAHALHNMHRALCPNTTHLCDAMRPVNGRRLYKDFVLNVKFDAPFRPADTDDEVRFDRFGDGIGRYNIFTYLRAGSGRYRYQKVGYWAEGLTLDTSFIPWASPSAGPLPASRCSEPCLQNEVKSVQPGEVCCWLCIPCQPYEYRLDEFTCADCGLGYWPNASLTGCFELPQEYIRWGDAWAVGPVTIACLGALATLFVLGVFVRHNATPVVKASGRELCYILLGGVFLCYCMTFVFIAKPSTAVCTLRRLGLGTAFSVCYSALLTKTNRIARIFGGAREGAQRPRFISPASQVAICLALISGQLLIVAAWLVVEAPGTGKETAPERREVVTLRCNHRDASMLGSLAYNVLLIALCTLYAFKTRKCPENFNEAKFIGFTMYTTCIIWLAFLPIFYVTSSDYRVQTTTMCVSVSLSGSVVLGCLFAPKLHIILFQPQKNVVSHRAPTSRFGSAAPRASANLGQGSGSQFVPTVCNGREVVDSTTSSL
UniProt Q96SW2, whole entry, looked up: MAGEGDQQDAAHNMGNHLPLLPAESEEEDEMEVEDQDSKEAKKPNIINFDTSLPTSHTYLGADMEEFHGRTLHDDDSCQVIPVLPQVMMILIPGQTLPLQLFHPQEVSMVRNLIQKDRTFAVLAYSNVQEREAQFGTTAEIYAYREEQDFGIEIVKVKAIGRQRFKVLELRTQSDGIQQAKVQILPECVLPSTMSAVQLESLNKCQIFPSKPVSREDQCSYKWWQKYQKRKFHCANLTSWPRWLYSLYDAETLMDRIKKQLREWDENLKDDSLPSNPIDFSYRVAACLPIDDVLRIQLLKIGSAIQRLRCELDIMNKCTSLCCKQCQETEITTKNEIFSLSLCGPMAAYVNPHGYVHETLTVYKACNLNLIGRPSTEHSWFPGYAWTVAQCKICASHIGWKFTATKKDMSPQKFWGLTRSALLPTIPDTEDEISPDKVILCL
UniProt Q9UDY8, 329-566 limits assumed: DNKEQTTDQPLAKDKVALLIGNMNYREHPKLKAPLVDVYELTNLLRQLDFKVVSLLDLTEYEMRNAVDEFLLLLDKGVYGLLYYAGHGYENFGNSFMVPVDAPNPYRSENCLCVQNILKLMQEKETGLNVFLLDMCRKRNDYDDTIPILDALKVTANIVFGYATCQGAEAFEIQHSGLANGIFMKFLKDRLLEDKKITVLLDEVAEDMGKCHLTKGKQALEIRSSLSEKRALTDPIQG
UniProt P22756, 31-920 isoform 4 limits assumed: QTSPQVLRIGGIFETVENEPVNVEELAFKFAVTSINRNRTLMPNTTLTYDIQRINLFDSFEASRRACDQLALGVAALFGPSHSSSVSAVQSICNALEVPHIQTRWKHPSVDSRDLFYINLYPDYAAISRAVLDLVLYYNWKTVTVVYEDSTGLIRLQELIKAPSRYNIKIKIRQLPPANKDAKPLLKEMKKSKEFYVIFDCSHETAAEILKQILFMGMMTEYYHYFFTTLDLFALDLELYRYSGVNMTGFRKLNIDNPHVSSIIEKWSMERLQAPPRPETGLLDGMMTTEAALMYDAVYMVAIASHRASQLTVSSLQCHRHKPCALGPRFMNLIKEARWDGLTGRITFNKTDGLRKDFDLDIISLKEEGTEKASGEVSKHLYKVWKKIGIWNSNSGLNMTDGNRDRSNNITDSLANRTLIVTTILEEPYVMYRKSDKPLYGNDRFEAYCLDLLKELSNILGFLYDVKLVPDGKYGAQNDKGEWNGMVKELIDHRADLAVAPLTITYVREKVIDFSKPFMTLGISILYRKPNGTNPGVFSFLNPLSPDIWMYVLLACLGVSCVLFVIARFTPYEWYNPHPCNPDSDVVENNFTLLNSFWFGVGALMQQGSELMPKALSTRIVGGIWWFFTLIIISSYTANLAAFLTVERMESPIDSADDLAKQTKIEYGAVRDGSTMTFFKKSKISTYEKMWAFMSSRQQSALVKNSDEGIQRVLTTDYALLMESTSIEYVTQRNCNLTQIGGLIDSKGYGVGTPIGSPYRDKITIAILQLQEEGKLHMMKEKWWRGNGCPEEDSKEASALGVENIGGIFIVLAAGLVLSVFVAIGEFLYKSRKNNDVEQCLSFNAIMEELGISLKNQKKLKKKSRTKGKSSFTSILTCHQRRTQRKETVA

SMILES | target | assay | system | setting | how to read | measurement | result
O=C(O)c1ccnc(C(=O)O)c1Nc1ccccc1F | Egl nine homolog 1 (EGLN1, Homo sapiens, UniProt Q9GZT9) | inhibitor, HTRF |  | 400 µM |  | remaining activity | 100%
CC(=O)N[C@@H](CCC(N)=O)C(=O)N[C@H](C(=O)N[C@@H](C)C(=O)N[C@@H](CCCNC(=N)N)C(=O)N[C@@H](CCCCNC(=O)CCc1ccc(N=Nc2ccc(N(C)C)cc2)cc1)C(=O)N[C@@H](CO)C(=O)N[C@H](C(=O)NCC(=O)NCC(=O)NCCCNC(=S)Nc1ccc2c(c1)C(=O)OC21c2ccc(O)cc2Oc2cc(O)ccc21)[C@@H](C)O)[C@@H](C)O | NAD-dependent protein deacetylase sirtuin-1 (SIRT1, Homo sapiens, UniProt Q96EB6) | substrate, fluorescence kinetics |  | 37 °C, 7 nM SIRT1, with: 500 µM NAD+ |  | Km | 0.1 ± 0.014 µM
CCN(CC)Cc1cccc(/C=C/c2nc3ccc(F)cc3c(=O)n2-c2ccccc2Cl)n1 | Glutamate receptor 2 (Gria2, Rattus norvegicus, UniProt P19491) | glutamate-induced current, inhibitor, whole-cell patch clamp | HEK293 | holding -60 mV, with: 3 mM glutamate, 30 µM cyclothiazide |  | Hill coefficient | 1.72 ± 0.08
CCOC(=O)/C=C/CNCCCCN1c2ccccc2CCc2ccc(Cl)cc21 | E3 ubiquitin-protein ligase NEDD4 | inhibitor, Ub-TR-FRET |  | 100 µM, 1 h preincubation, HECT domain, with: ATP 2 mM | higher = more ubiquitination | ubiquitination TR-FRET signal AUC | 8900 a.u. and 9000 a.u. and 8240 a.u. and 9690 a.u. and 8610 a.u. and 9230 a.u.
COc1ccc2[nH]cc(/C=C/c3ccc([N+](=O)[O-])cc3F)c2c1 | Amyloid-beta precursor protein, Aβ1-40 (APP, Homo sapiens, UniProt P05067) | Aβ40 aggregation, thioflavin T fluorescence |  | 25 µM |  | inhibition | 64%
Cc1ccc(NS(=O)(=O)c2cc(C(=O)Nc3ccccc3C(=O)O)ccc2C)cc1Cl | RPA1 N-terminal domain | binding, fluorescence polarisation competition |  | with: FITC-ATRIP probe |  | ligand efficiency | 0.19
CCCCCCCC(=O)OCC(COP(=O)(O)OC1C(O)C(O)C(OP(=O)(O)O)C(OP(=O)(O)O)C1O)OC(=O)CCCCCCC (centres unmarked) | CNGA3/CNGB3 (Homo sapiens, UniProt Q16281+Q9NQW8) | increase in cGMP K1/2, modulator, inside-out patch clamp |  | CNGA3/CNGB3 heteromer |  | Hill coefficient | 1.5
Cc1cc(NC(=O)c2cccc(NC(=O)C3=CC(C)(C)CCC3=O)c2)ccc1Nc1nccc(-c2cccnc2)n1 | MAPK8 | kinase activity, inhibitor |  | 0.5487 µM, unit not given, with: 10 mM GSH | reference: DMSO | remaining activity | 0.577
CC[C@H](C)[C@H](NC(=O)c1ccccc1N)C(=O)N[C@@H](CCCCN)C(=O)N[C@@H](CCC(N)=O)C(=O)N[C@@H](CO)C(=O)N[C@@H](CO)C(=O)N[C@@H](CC(C)C)C(=O)N[C@@H](CC(C)C)C(=O)N[C@@H](CCCCNc1ccc([N+](=O)[O-])cc1[N+](=O)[O-])C(N)=O | Mitochondrial intermediate peptidase (MIPEP, Homo sapiens, UniProt Q99797) | substrate, FRET peptide hydrolysis |  |  |  | kcat | 0.055 s⁻¹
COC(=O)[C@@]1(C)C=C(C(=O)Nc2cccc(C(=O)NC34CC(Nc5nccc(-c6cccnc6)n5)(C3)C4)c2)C(=O)CC1 | MAPK8 | kinase activity, inhibitor |  | 0.006774 µM, with: 10 mM GSH |  | remaining activity | 0.692 fraction of control
Cc1cccc(Nc2ncnc3onc(-c4ccc(F)cc4)c23)c1 | Cystic fibrosis transmembrane conductance regulator (CFTR, Homo sapiens, UniProt P13569, del508-508) |  | FRT expressing ΔF508-CFTR |  | reference: DMSO | iodide influx rate | 113 µM/s
COc1ccc(NC(=O)CN2CCCN(S(=O)(=O)c3ccc(C(C)(C)C)cc3)CC2)c(OC)c1 | GRM4 | calcium mobilization, positive allosteric modulator | CHO cells with Gqi5 | with: glutamate | reference: PHCCC maximal response | maximal response | 32.6 ± 3.1%
OCC1C(O)C(O)C(O)CN1CCCC(F)(F)COCc1ccc(-c2ccccc2)cc1 (centres unmarked) | Beta-glucosidase (GBA2, Homo sapiens, UniProt Q9HCG7) |  |  |  | reference: GCS IC50 over GBA2 IC50 | selectivity ratio | 8
COc1cc(C(=O)N2CCC(N3CCN(C)CC3)CC2)ccc1Nc1ncc2c(n1)N(C1CCCC1)c1ccccc1C(=O)N2C | Bromodomain-containing protein 4, BD1 (BRD4, Homo sapiens, UniProt O60885) | differential scanning fluorimetry |  | 10 µM, protein 2 µM |  | ΔTm | 4.1 ± 0.24 °C
CC(=O)N1CCC[C@H]1C(=O)N[C@@H](CCC(N)=O)C(=O)N[C@@H](CC(C)C)C(=O)N1CCC[C@H]1C(=O)N[C@@H](Cc1ccccc1)C(N)=O | Protein-glutamine gamma-glutamyltransferase (TGM2, Homo sapiens, UniProt P21980) | enzyme activity, activator, GLDH-coupled deamidation |  | noncompetitive model, with: Ca2+ |  | apparent Ka | ~1 mM
O=C(Nc1ccc(F)cc1)C12CC1/C(=N\O)c1ccccc1O2 (centres unmarked) | GRM4 | positive allosteric modulator, calcium mobilization | CHO expressing Gqi5 | concentration not given, with: glutamate EC20 | reference: glutamate 1 mM | response | 121 ± 8.6%

SMILES | target | assay | system | setting | how to read | measurement | result
CC(=O)Nc1ncc(CN2CC[C@H](Oc3cccc(F)n3)C[C@@H]2C)s1 [isotope labelled] | Protein O-GlcNAcase (OGA, Homo sapiens, UniProt O60502) | autoradiography | human striatum sections | 5 nM, radiolabelled compound |  | binding | 3.7 nCi/mg
O=C(OC(C(F)(F)F)C(F)(F)F)N1CCc2c(Br)cccc2C1 | Fatty-acid amide hydrolase 1 (FAAH, Homo sapiens, UniProt O00519) | enzyme activity, inhibitor, fluorescence AAMCA substrate |  | 1 µM |  | activity | inactive
Cc1ccc(C(=O)Nc2ccc(C(C)C)cc2C(=O)O)cc1S(=O)(=O)Nc1ccc(Br)cc1 | RPA1 N-terminal domain | binding, fluorescence polarisation competition |  | with: FITC-ATRIP probe |  | ligand efficiency | 0.21
COc1ccc2nc(SCC(=O)Nc3ccc(S(N)(=O)=O)cc3)[nH]c2c1 | fMet-Leu-Phe receptor (FPR1, Homo sapiens, UniProt P21462) | calcium mobilization, agonist | transfected HL-60 cells | concentration not given |  | activity class | active
CCOC(=O)CCC(C(=O)/C=C/c1ccc(O)c(OC(F)(F)F)c1)C(=O)/C=C/c1ccc(O)c(OC(F)(F)F)c1 | Amyloid-beta precursor protein (APP, Homo sapiens, UniProt P05067) | SDS-PAGE western blot, item: Aβ1-42 species 75-200 kDa |  | 30 µM, 24 h, 37 °C, with: Aβ 10 µM | reference: DMSO control | Aβ band density | 1030 ± 185%
Nc1ncnc2c1c(-c1ccc(C(=O)Nc3cc(C4CC4)ccn3)cc1)nn2[C@@H]1CCCN(C(=O)C2CC2)C1 | Tyrosine-protein kinase BTK, non-phosphorylated (BTK, Homo sapiens, UniProt Q06187) | TR-FRET binding kinetics |  | 37 °C, unphosphorylated enzyme |  | residence time | 4 min and 3.8 min
Nc1nc(SCc2ccc(Cl)cc2)nn1S(=O)(=O)c1ccc(-c2ccccc2)nc1 | Lysophospholipase-like protein 1 | activator, gel-based ABPP FP-rhodamine |  |  | reference: DMSO | probe labelling | 1.3 fold
CCOC(=O)/C=C/CNCCCN1c2ccccc2CCc2ccc(Br)cc21 | E3 ubiquitin-protein ligase NEDD4 | inhibitor, Ub-TR-FRET |  | 0.4115 µM, 1 h preincubation, HECT domain, with: ATP 2 mM | higher = more ubiquitination | ubiquitination TR-FRET signal AUC | 135000 a.u. and 133000 a.u.
CCN(Cc1cccnc1)c1ccc2c(c1)c(=O)c(C(N)=O)cn2-c1ccc(F)cc1 | Metabotropic glutamate receptor 2 (Grm2, Rattus norvegicus, UniProt P31421) | calcium mobilization, negative allosteric modulator |  | 30 µM, with: glutamate 100 µM | reference: glutamate maximum | response | 2.36 ± 0.14%
CC(C)(Cn1cc(-c2ccc(CO)cc2)nn1)c1c[nH]c2ccccc12 | Glucagon-like peptide 1 receptor (GLP1R, Homo sapiens, UniProt P43220) | cAMP accumulation, positive allosteric modulator, HTRF |  | 0.6 µM, crude reaction product, with: GLP-1(9-36) at EC20 | reference: BETP | Emax | 84.7%
CN1CCN(c2ccc(-c3cccc(CN4CCN(CCNC(=O)CCCCCCCNc5cccc6c5C(=O)N(C5CCC(=O)NC5=O)C6=O)CC4)c3)cc2NC(=O)c2c[nH]c(=O)cc2C(F)(F)F)CC1 (centres unmarked) | WD repeat-containing protein 5 (WDR5, Homo sapiens, UniProt P61964) | degrader, immunoblot | MV4;11 | 18 h |  | Dmax | 77 ± 12%
O=C1CCC(N2Cc3cc(-c4nc5ccccn5c4NC45CC6CC(CC(C6)C4)C5)ccc3C2=O)C(=O)N1 (centres unmarked) | WEE1/CRBN (Homo sapiens, UniProt P30291+Q96SW2, G322A) | degrader, HiBiT | MOLM-14 | 5 h |  | DC50 | 0.017 µM
CC(=O)N[C@@H](C)C(=O)N[C@@H](CC(C)C)C(=O)N[C@H](C(=O)N[C@@H](CO)C(=O)N[C@@H](CCCNC(=N)N)C(=O)Nc1ccc2c(CC(N)=O)cc(=O)oc2c1)C(C)C | Mucosa-associated lymphoid tissue lymphoma translocation protein 1 (MALT1, Homo sapiens, UniProt Q9UDY8) | substrate, fluorogenic peptide hydrolysis |  | pH 7.5, catalytic domain 285 or 294 nM |  | kcat/Km | 31000 M⁻¹ s⁻¹
Nc1nc(NCCc2ccc(Cl)cc2)nn1S(=O)(=O)c1cccc2ccccc12 | Lysophospholipase-like protein 1 | activator, gel-based ABPP FP-rhodamine |  |  | reference: DMSO | probe labelling | 1.6 fold
CCOC(=O)/C=C/CNCCCCCN1c2ccccc2CCc2ccc(Cl)cc21 | E3 ubiquitin-protein ligase NEDD4 | inhibitor, Ub-TR-FRET |  | 1.235 µM, 1 h preincubation, HECT domain, with: ATP 2 mM | higher = more ubiquitination | ubiquitination TR-FRET signal AUC | 68900 a.u. and 70700 a.u. and 67400 a.u. and 67200 a.u. and 69600 a.u. and 68000 a.u.
O=C(O)CC[C@H](NC(=O)c1cc(C(=O)O)cc([C@H]2CCN[C@@H]2C(=O)O)c1)C(=O)O | Glutamate receptor ionotropic, kainate 1 (Rattus norvegicus, UniProt P22756) | radioligand binding | Sf9 membranes | 10 µM, homomeric receptor, with: [3H]SYM2081 |  | specific binding | 91 ± 6%

Some of these lines once more:
SMILES | target | assay | system | setting | how to read | measurement | result
CN1CCN(c2ccc(-c3cccc(CN4CCN(CCNC(=O)CCCCCCCNc5cccc6c5C(=O)N(C5CCC(=O)NC5=O)C6=O)CC4)c3)cc2NC(=O)c2c[nH]c(=O)cc2C(F)(F)F)CC1 (centres unmarked) | WD repeat-containing protein 5 (WDR5, Homo sapiens, UniProt P61964) | degrader, immunoblot | MV4;11 | 18 h |  | Dmax | 77 ± 12%
O=C1CCC(N2Cc3cc(-c4nc5ccccn5c4NC45CC6CC(CC(C6)C4)C5)ccc3C2=O)C(=O)N1 (centres unmarked) | WEE1/CRBN (Homo sapiens, UniProt P30291+Q96SW2, G322A) | degrader, HiBiT | MOLM-14 | 5 h |  | DC50 | 0.017 µM
CC(=O)N[C@@H](C)C(=O)N[C@@H](CC(C)C)C(=O)N[C@H](C(=O)N[C@@H](CO)C(=O)N[C@@H](CCCNC(=N)N)C(=O)Nc1ccc2c(CC(N)=O)cc(=O)oc2c1)C(C)C | Mucosa-associated lymphoid tissue lymphoma translocation protein 1 (MALT1, Homo sapiens, UniProt Q9UDY8) | substrate, fluorogenic peptide hydrolysis |  | pH 7.5, catalytic domain 285 or 294 nM |  | kcat/Km | 31000 M⁻¹ s⁻¹
Nc1nc(NCCc2ccc(Cl)cc2)nn1S(=O)(=O)c1cccc2ccccc12 | Lysophospholipase-like protein 1 | activator, gel-based ABPP FP-rhodamine |  |  | reference: DMSO | probe labelling | 1.6 fold
CCOC(=O)/C=C/CNCCCCCN1c2ccccc2CCc2ccc(Cl)cc21 | E3 ubiquitin-protein ligase NEDD4 | inhibitor, Ub-TR-FRET |  | 1.235 µM, 1 h preincubation, HECT domain, with: ATP 2 mM | higher = more ubiquitination | ubiquitination TR-FRET signal AUC | 68900 a.u. and 70700 a.u. and 67400 a.u. and 67200 a.u. and 69600 a.u. and 68000 a.u.
